Assay results from different studies.
Each numbered part is a random draw from the data of one study; scales do not carry over between parts.

Sample 1
Target: RNA binding protein fox-1 homolog 2, RRM domain, GST-SBP tag (RBFOX2, Homo sapiens, UniProt O43251-10, residues 100-194)
Technique: RNA Bind-n-Seq
Molecule type: RNA
Medium: in vitro
Tested at: 365 nM
Notes: natural RNA segment, single round, ends assumed
Reference: no-protein control
Direction: higher = stronger binding
Residues (chain): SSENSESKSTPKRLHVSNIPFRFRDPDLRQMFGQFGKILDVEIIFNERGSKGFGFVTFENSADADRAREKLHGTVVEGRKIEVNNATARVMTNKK
Sequence | RBNS enrichment (R)
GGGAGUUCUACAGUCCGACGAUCAAUUUUGUCAUGUUUCUCAAGCAGUUUUUCUGAGUAGUUUCUGAGGAGGAACAAAUUACAAGUGUACCCAAUAACUGAAAAUGUUUUAACUCACUCUCAUUUGUAAGCAGUGGAAUUCUCGGGUGCCAA | 0.321
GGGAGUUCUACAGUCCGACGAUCUCCCUAAUGGGAUUUUUUUUACCUGUUCCUGGGCCCAUUACAGAGCCUCUGAAGUUUGCAGUAUGCUUUCAAAUGAAAUAAUAUACUUCCAUUGAUUCAGGAAGCAGAUUUGGAAUUCUCGGGUGCCAA | 0.452
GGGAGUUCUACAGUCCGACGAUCGAACGUGUGUUUUCUUAGUGUUAGAAGCCAGGCCCUGAGUCCCCAGCACUCACCUGAACUGUGGCUGAUUUGGUCCCAGUCCAGCUGGGGAGGUGUUUGGCUGACAAGGAUGGAAUUCUCGGGUGCCAA | 0.288
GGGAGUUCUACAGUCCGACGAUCCAGGCACCAGGCGCAAACUGCUUCCCGCUGUUGGCCAUCCCUUCCCCAGCCACAGGUGUCCCUGCCCCCAGGACAGUCCAGGGCCAGGGGCUUCUGUGAGAGGCAGAGGGUGGAAUUCUCGGGUGCCAA | 0.187
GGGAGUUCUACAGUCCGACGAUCUGGAAGAGUUGUCAUCACUAAAACUUCAGUACUGAGAGUAACAUGACUCAGUAGCCACAGAAGCUAUGAUUUGUAAAAUAUAUAAUUGAAUCAGAGUAAUCAUAAUGCAGUGGAAUUCUCGGGUGCCAA | 0.532
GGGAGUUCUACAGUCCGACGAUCUCUGGUCUCUUUAAGACUGUUUUAAAAGAAAUCAAUUUAGGGAACCCCAGUUAUAUAAUAUAAACUUUGUAAUCUGAGAGAAAAAAUGUAUAGUAAAUCUAAGUCUUGAUUGGAAUUCUCGGGUGCCAA | 1.08
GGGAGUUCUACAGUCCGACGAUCCUUAACAAUGAGCAUAGCUGGUCUCAGCCAGGGCACUCAGCACCUUCCCUUAAGGAGCAAGAAGCGCCUUCUCUGUCAGGUAAGGGGAUAAGCUCUGCUGGAUCCAAGGGUGGAAUUCUCGGGUGCCAA | 0.28
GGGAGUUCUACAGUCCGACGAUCUUGUUUUUUGUUGUUGUUGUUAUUUUUUUCUCCUUGUUUGUAUUUAAUUAAAACAAAUUGUCAUGAGGAAAUGUUCUCUGUUUGGAUGGCUCUUUUGUGUGUGAACUGUUUGGAAUUCUCGGGUGCCAA | 8.56

Sample 2
Cell line: HEK-293T
Read-out: pseudovirus infection
Technique: FDA-approved drug library screen
Organism: VSV pseudotyped with SARS-CoV-2 spike
Tested at: 10 µM
Time: 16 h
Reference: vehicle-treated
Structure (SMILES) | GFP-positive cells [%]
C[C@H](CCC(=O)O)[C@H]1CC[C@H]2[C@@H]3CC[C@@H]4C[C@H](O)CC[C@]4(C)[C@H]3CC[C@]12C | 104
NCC(CC(=O)O)c1ccc(Cl)cc1 (stereo not shown) | 91.6
C[C@]12CC[C@H]3[C@@H](CCC4=CC(=O)CC[C@@]43C)[C@@H]1CC[C@@H]2O | 107

Sample 3
Target: Replicase polyprotein 1ab, main protease (rep, Severe acute respiratory syndrome coronavirus 2, UniProt P0DTD1)
Read-out: enzyme activity
Action: inhibitor
Tested at: 20 µM
Notes: hit confirmation
Compound | inhibition
CO[C@H]1C([C@@]2(C)O[C@@H]2CC=C(C)C)[C@]2(CC[C@H]1OC(=O)/C=C/C=C/C=C/C=C/C(=O)O)CO2 (stereo partly shown) | 37.5%
COc1cc2c(cc1OCCCN1CCCC1)N=C(N)C21CCC1 | 5.2%
N=C(N)S/C=C\C(=O)O | 8.6%
CCOC(=O)Nc1ccc(NCc2ccc(F)cc2)nc1N | 43.2%

Sample 4
Target: Histone acetyltransferase KAT6A, winged helix 1, GST fusion (KAT6A, Homo sapiens, UniProt Q92794, residues 1-85)
Technique: protein binding microarray
Molecule type: double-stranded DNA, one strand shown
Medium: in vitro
Tested at: not given
Notes: 8-mer, flanks averaged, mean of 2 arrays, mostly near background
Reference: not given
Direction: higher = stronger binding
Construct (chain): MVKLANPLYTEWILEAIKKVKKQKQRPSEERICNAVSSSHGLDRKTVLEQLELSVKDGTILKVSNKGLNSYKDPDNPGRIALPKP
Sequence | E-score
ACACGCTC | 0.0739
AGCTGAAA | -0.117
AGACTGGG | -0.163
GCTCACCC | 0.0944
CTGTCTGA | -0.056
AACGTTCC | 0.157
CTTGGGGC | 0.105
CAGCGTAA | 0.058

Sample 5
Target: Cyclic AMP-dependent transcription factor ATF-1 (ATF1, Homo sapiens, UniProt P18846, residues 1-271, full length assumed)
Technique: protein-binding microarray
Molecule type: double-stranded DNA, one strand shown
Medium: in vitro
Tested at: not given
Notes: k-mer, scored over probes, only values ≥0.25
Direction: higher = stronger binding
Residues (chain): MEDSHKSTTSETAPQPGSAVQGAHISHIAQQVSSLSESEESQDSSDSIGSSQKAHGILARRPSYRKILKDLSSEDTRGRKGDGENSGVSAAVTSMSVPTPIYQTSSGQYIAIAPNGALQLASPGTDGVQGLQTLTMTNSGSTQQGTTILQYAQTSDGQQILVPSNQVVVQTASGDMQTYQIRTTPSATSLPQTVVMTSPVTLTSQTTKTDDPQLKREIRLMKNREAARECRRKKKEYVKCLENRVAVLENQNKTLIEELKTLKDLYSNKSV
Sequence | E-score
CATCGTC | 0.255
ATTGACG | 0.363
CGTAACG | 0.309
GTCGTAA | 0.266

Sample 6
Target: Replicase polyprotein 1ab, nsp13 helicase (rep, Severe acute respiratory syndrome coronavirus 2, UniProt P0DTD1)
Action: inhibitor
Tested at: 20 µM
Compound | inhibition [%]
CC(C)N(CC[C@H](c1ccccc1)c1cc(CO)ccc1O)C(C)C | 5.52
C=CCN1CC[C@]23c4c5ccc(O)c4O[C@H]2/C(=N/NC(=O)c2ccccc2)CC[C@@]3(O)[C@H]1C5 | 6.24
CN(Cc1cnc2nc(N)nc(N)c2n1)c1ccc(C(=O)N[C@@H](CCC(=O)O)C(=O)O)cc1 | 15.9
O=S(=O)(O)c1cc(I)c(O)c2ncccc12 | 1.34
CC(C)(O)CC(=O)NCCn1ccc2ncnc(Nc3ccc(Oc4cccc(C(F)(F)F)c4)c(Cl)c3)c21 | 2.18
CC1Nc2ccc(Cl)cc2S(=O)(=O)N1 (stereo not shown) | 4.85
Nc1ncn([C@@H]2O[C@H](CO)[C@@H](O)[C@H]2O)c(=O)n1 | -0.35
OCCC#Cc1nc(-c2ccc(F)cc2)c(-c2ccncc2)n1CCCc1ccccc1 | 10.9
CC1(C)CN(C(=O)c2ccc(-c3cccc4nc(NC(=O)C5CC5)nn34)cc2)C1 | 5.75
CC(=O)N[C@@H](CSSC[C@H](NC(C)=O)C(=O)O)C(=O)O | 1.9
CCCCCCCCCCCCCCCCCCCCCC(=O)O | -9.34
O=[N+]([O-])c1cc(Cl)ccc1S(=O)(=O)N1CCN(Cc2ccccc2)CC1 | 8.11
CN1CCN(c2ccc(/C=C(\C#N)c3ccccc3Br)cc2)CC1 | 4.37
CCN(CC)CCNc1ccc(CO)c2sc3ccccc3c(=O)c12 | 21.1
COc1ccc(/C=C/C(=O)/C=C(O)/C=C/c2ccc(OC)c(OC)c2)cc1OC | -16.9
CS(=O)(=O)n1cc2c(n1)CN([C@H]1CO[C@H](c3cc(F)ccc3F)[C@@H](N)C1)C2 | 0.03
Cc1cc(-c2ccc3c(c2)CC[C@H]3N2CC3(CCN(C(=O)Cc4cn5cc(C)sc5n4)CC3)C2)ncn1 | 5.1
Cc1ccc(NC(=O)c2ccc(CN3CC[C@H](N(C)C)C3)c(C(F)(F)F)c2)cc1Nc1nccc(-c2cncnc2)n1 | 6.95
CCN(CC)CCOC(=O)c1cc(Cl)c(N)cc1OC | 7.24
Clc1ccc(C(c2ccccc2Cl)C(Cl)Cl)cc1 (stereo not shown) | 4.33
Nc1nc(=S)c2ncn([C@@H]3O[C@H](CO)[C@@H](O)[C@H]3O)c2[nH]1 | 44.1
c1ccc2c(c1)OCC(C1=NCCN1)O2 (stereo not shown) | 7.11
O=C(O)C(O)c1ccccc1 (stereo not shown) | -1.12
O=C(c1ccc(F)c(F)c1Nc1ccc(I)cc1F)N1CC(O)([C@@H]2CCCCN2)C1 | 12
C[C@@]1(F)[C@H](O)[C@@H](CO)O[C@H]1n1ccc(N)nc1=O | -0.03

Repeated from above (sample 1):
Sequence | RBNS enrichment (R)
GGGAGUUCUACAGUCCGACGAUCUCCCUAAUGGGAUUUUUUUUACCUGUUCCUGGGCCCAUUACAGAGCCUCUGAAGUUUGCAGUAUGCUUUCAAAUGAAAUAAUAUACUUCCAUUGAUUCAGGAAGCAGAUUUGGAAUUCUCGGGUGCCAA | 0.452
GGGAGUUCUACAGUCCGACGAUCGAACGUGUGUUUUCUUAGUGUUAGAAGCCAGGCCCUGAGUCCCCAGCACUCACCUGAACUGUGGCUGAUUUGGUCCCAGUCCAGCUGGGGAGGUGUUUGGCUGACAAGGAUGGAAUUCUCGGGUGCCAA | 0.288
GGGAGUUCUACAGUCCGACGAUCCAGGCACCAGGCGCAAACUGCUUCCCGCUGUUGGCCAUCCCUUCCCCAGCCACAGGUGUCCCUGCCCCCAGGACAGUCCAGGGCCAGGGGCUUCUGUGAGAGGCAGAGGGUGGAAUUCUCGGGUGCCAA | 0.187
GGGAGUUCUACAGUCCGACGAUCUGGAAGAGUUGUCAUCACUAAAACUUCAGUACUGAGAGUAACAUGACUCAGUAGCCACAGAAGCUAUGAUUUGUAAAAUAUAUAAUUGAAUCAGAGUAAUCAUAAUGCAGUGGAAUUCUCGGGUGCCAA | 0.532
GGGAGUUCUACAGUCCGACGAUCUCUGGUCUCUUUAAGACUGUUUUAAAAGAAAUCAAUUUAGGGAACCCCAGUUAUAUAAUAUAAACUUUGUAAUCUGAGAGAAAAAAUGUAUAGUAAAUCUAAGUCUUGAUUGGAAUUCUCGGGUGCCAA | 1.08
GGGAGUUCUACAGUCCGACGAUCCUUAACAAUGAGCAUAGCUGGUCUCAGCCAGGGCACUCAGCACCUUCCCUUAAGGAGCAAGAAGCGCCUUCUCUGUCAGGUAAGGGGAUAAGCUCUGCUGGAUCCAAGGGUGGAAUUCUCGGGUGCCAA | 0.28
